Measured values of several laboratories.
Lines come from different studies, so protocols differ. ± marks the error that the study gave.

Substance = O=C(NO)c1ccc(O)c(O)c1; target or system = ARPE-19, uninfected; test = cytotoxicity, CellTiter-Glo; conditions = 14 d; quantity = TD50; value = 276 ± 7.8 µM
Substance = CC(C)C[C@H](NP(=O)(OCCOCn1cnc2c(=O)[nH]c(N)nc21)Oc1ccccc1)C(=O)OCc1ccccc1 (stereo partly drawn); target or system = HEL; test = altered cell morphology; quantity = minimal cytotoxic concentration; value = > 100 µM
Substance = CN(CCCC(=O)O)N=O; target or system = HepaRG 2D; test = cell viability; conditions = concentration not given, 24 h; how to read = relative to: vehicle; quantity = ATP level; value = 77%
Substance = C#CC[C@H](NCc1ccc(-c2ccccc2)cc1)C(=O)N[C@@H](Cc1c[nH]c2ccccc12)C(=O)NC(C)(C)C; target or system = Vero; test = cell morphology, microscopy; conditions = 5 (unit not given); quantity = minimum cytotoxic concentration; value = 20 µM
Substance = Nc1nc2c(ncn2COCCOP(=O)(NCC(=O)OCc2ccccc2)Oc2ccccc2)c(=O)[nH]1 (stereo not drawn); target or system = HEL; test = altered cell morphology; quantity = minimal cytotoxic concentration; value = > 100 µM
Substance = CC[C@H](C)[C@H](NC(=O)[C@H](Cc1ccccc1)NC(=O)[C@H](CCC(=O)O)NC(=O)[C@H](CCCCNC(=O)COCCOCCNC(=O)COCCOCCNC(=O)CC[C@H](NC(=O)CCCCCCCCCCCCCCCCC(=O)O)C(=O)O)NC(=O)[C@H](C)NC(=O)[C@H](C)NC(=O)[C@H](CCC(N)=O)NC(=O)CNC(=O)[C@H](CCC(=O)O)NC(=O)[C@H](CC(C)C)NC(=O)[C@H](Cc1ccc(O)cc1)NC(=O)[C@H](CO)NC(=O)[C@H](CO)NC(=O)[C@@H](NC(=O)[C@H](CC(=O)O)NC(=O)[C@H](CO)NC(=O)[C@@H](NC(=O)[C@H](Cc1ccccc1)NC(=O)[C@@H](NC(=O)CNC(=O)[C@H](CCC(=O)O)NC(=O)C(C)(C)NC(=O)[C@@H](N)Cc1cnc[nH]1)[C@@H](C)O)[C@@H](C)O)C(C)C)C(=O)N[C@@H](C)C(=O)N[C@@H](Cc1c[nH]c2ccccc12)C(=O)N[C@@H](CC(C)C)C(=O)N[C@H](C(=O)N[C@@H](CCCNC(=N)N)C(=O)NCC(=O)N[C@@H](CCCNC(=N)N)C(=O)NCC(=O)O)C(C)C; target or system = human PBMC; test = T-cell proliferation; conditions = 30 µg/mL, stimulation index above 2.0; quantity = responding donors; value = 9.9%
Substance = Nc1ccc2c(n1)[nH]c1ccccc12; target or system = rat primary midbrain neurons; test = selective dopaminergic neurotoxicity, refers to: TH+ over MAP2+ neurons; conditions = 24 h; quantity = threshold concentration; value = 1 µM
Substance = COc1cc(/C=C/C(=O)OCC(O)C(OC)c2ccc(O)c(OC)c2)ccc1O (stereo not drawn); target or system = Hepa-1c1c7; test = cytotoxicity, crystal violet; conditions = 48 h; quantity = IC50; value = > 20000 nM
Substance = CN[C@@](C)(C[18F])C(=O)O; target or system = MDA-MB-468 tumour model; test system = host not given, tumour; conditions = 15 min, tumour-bearing; quantity = tracer uptake; value = 4.3 %ID/g
Substance = CCNc1nc(Cl)nc(NCC)n1; target or system = HEK293; test = neutral red uptake; conditions = 24 h; quantity = LD50; value = 1.44 µg/mL
Substance = CC[C@H](C)[C@H](NC(=O)[C@H](CCCNC(=N)N)NC(=O)[C@H](CCCNC(=N)N)NC(=O)[C@H](CC(C)C)NC(=O)[C@H](Cc1c[nH]c2ccccc12)NC(=O)[C@H](C)NC(=O)[C@H](CCCCN)NC(=O)[C@@H](NC(=O)[C@H](CCCNC(=N)N)NC(=O)[C@H](CCCNC(=N)N)NC(=O)[C@H](CC(C)C)NC(=O)[C@@H](N)Cc1c[nH]c2ccccc12)[C@@H](C)CC)C(=O)N[C@@H](CCCCN)C(=O)N[C@@H](C)C(=O)N[C@@H](CC(C)C)C(=O)N[C@@H](CC(N)=O)C(=O)N[C@@H](CCCNC(=N)N)C(=O)N[C@@H](CCC(N)=O)C(=O)N[C@@H](CC(C)C)C(=O)NCC(=O)N[C@H](C(=O)N[C@@H](C)C(=O)N[C@@H](C)C(N)=O)C(C)C; target or system = human pleural mesothelial cells (CRL-9444); test = LIVE/DEAD calcein-AM/EthD-1; conditions = 24 h, 37 °C; how to read = relative to: untreated; quantity = maximum non-lethal concentration; value = < 40 µM
Substance = CCN(N=O)C(C)C; target or system = HepaRG, 3D spheroids; conditions = concentration not given, 24 h, highest tested concentration, hEGF 5 days; how to read = relative to: vehicle; quantity = γH2AX fold increase; value = 1.5 to 1.8 fold
Substance = pneumocandin K; target or system = human erythrocytes; conditions = 102.4 µg/mL, 1 h, 37 °C; how to read = relative to: Tween 20; quantity = hemolysis; value = > 50%
Substance = GRKKRRQRRRPQSWQDLKDH; target or system = HeLa; test = MTT; test system = peptide; conditions = up to 100 µM, 24 h; quantity = cytotoxicity; value = not toxic
Substance = C=C(C[C@H](N)C(=O)O)C(=O)NC1CC1; target or system = SK-BR-3 cells; test = cytotoxicity; conditions = 24 h; how to read = relative to: vehicle; quantity = lowest significantly active concentration; value = 100 µM
Substance = C[C@H](N)C(=O)N[C@@H](C)C(=O)N[C@@H](CCCCN)C(=O)N[C@@H](CCCCN)C(=O)N[C@@H](C)C(=O)N[C@@H](C)C(=O)N[C@@H](C)C(=O)N[C@@H](CCCCN)C(=O)N[C@@H](CCCCN)C(=O)N[C@@H](C)C(=O)N[C@@H](C)C(=O)N[C@@H](C)C(=O)N[C@@H](CCCCN)C(=O)N[C@@H](CCCCN)C(=O)N[C@@H](C)C(=O)N[C@@H](C)C(=O)N[C@@H](C)C(=O)N[C@@H](CCCCN)C(=O)N[C@@H](CCCCN)C(=O)N[C@@H](C)C(N)=O; target or system = L929; test = FACS; conditions = concentration not given, added: hypertonic sucrose; quantity = inhibition of cellular uptake; value = 49%
Substance = CC(C)C[C@H](NC(=O)[C@H](C)NC(=O)CNC(=O)[C@H](CC(C)C)NC(=O)[C@H](CC(C)C)NC(=O)[C@H](CCCCN)NC(=O)[C@H](CCCCN)NC(=O)[C@H](CC(C)C)NC(=O)[C@H](CC(C)C)NC(=O)[C@H](CCCCN)NC(=O)[C@H](CC(C)C)NC(=O)[C@H](CC(C)C)NC(=O)[C@@H](N)CCCCN)C(=O)NCC(N)=O; target or system = human erythrocytes; conditions = 1 h, 37 °C, hemolysis ≤5%; quantity = minimal hemolytic concentration; value = 8 µM
Substance = CCCCN(CCCC)N=O; target or system = HepaRG 2D; test = cell viability; conditions = concentration not given, 24 h; how to read = relative to: vehicle; quantity = ATP level; value = 78.5%
Substance = CN1C(=O)[C@]23SS[C@@]1(C)C(=O)N2[C@H]1Nc2ccccc2[C@@]1([C@@]12c4ccccc4N[C@@H]1N1C(=O)[C@@]4(C)SS[C@]1(C(=O)N4C)[C@H]2O)[C@@H]3O; target or system = NCI-H460; test = cell growth or viability, SRB; quantity = IC50; value = 200 nM
Substance = CN[C@H](C(=O)N[C@H](C(=O)N(C)[C@H](c1noc(=O)[nH]1)C(C)C)C(C)C)C(C)(C)c1ccccc1; target or system = HT-29; test = cell growth or viability, MTT; quantity = IC50; value = > 10000 nM
Substance = CC[C@H](C)[C@H](NC(=O)[C@H](CCCCN)NC(=O)[C@H](CO)NC(=O)CNC(=O)[C@H](CC(C)C)NC(=O)[C@@H](N)Cc1c[nH]c2ccccc12)C(=O)N[C@@H](CCCCN)C(=O)N[C@@H](C)C(=O)N[C@@H](C)C(=O)N[C@@H](CCCCN)C(=O)N[C@@H](CCSC)C(=O)N[C@@H](CCCCN)C(=O)N[C@H](C(=O)NCC(=O)N[C@@H](CCSC)C(=O)N[C@@H](Cc1c[nH]c2ccccc12)C(=O)NCC(=O)N[C@@H](C)C(=O)N[C@H](C(=O)NCC(=O)N[C@@H](CC(C)C)C(=O)N[C@@H](CCCNC(=N)N)C(=O)N[C@@H](Cc1c[nH]cn1)C(=O)N[C@@H](CC(N)=O)C(=O)O)C(C)C)C(C)C; target or system = rat erythrocytes; conditions = 200 µM, 1 h, 37 °C; quantity = hemolysis; value = < 5%
Substance = CC(C)C[C@H](NC(=O)CN)C(=O)N[C@@H](Cc1ccccc1)C(=O)N[C@@H](CCCCN)C(=O)N[C@@H](CC(C)C)C(=O)N[C@@H](CC(C)C)C(=O)N[C@@H](CCCCN)C(=O)N[C@@H](CCCCN)C(=O)N[C@@H](CC(C)C)C(=O)N[C@@H](CC(C)C)C(=O)N[C@@H](CCCCN)C(=O)N[C@@H](CC(C)C)C(=O)N[C@@H](CC(C)C)C(=O)N[C@@H](CCCCN)C(N)=O; target or system = human erythrocytes; conditions = 1 h, 37 °C, hemolysis ≤5%; quantity = minimal hemolytic concentration; value = 125 µM
Substance = CO[C@]1(COP(=O)(N[C@@H](C)C(=O)OCc2ccccc2)Oc2ccccc2)O[C@@H](n2ccc(N)nc2=O)C(F)(F)[C@@H]1O (stereo partly drawn); target or system = Vero; test = cell morphology, microscopy; conditions = 5 (unit not given); quantity = minimum cytotoxic concentration; value = ≥ 100 µM
Substance = CC(C)OC(=O)[C@H](C)NP(=O)(OCCOCn1cnc2c(=O)[nH]c(N)nc21)Oc1ccccc1 (stereo partly drawn); target or system = HEL; test = altered cell morphology; quantity = minimal cytotoxic concentration; value = > 50 µM
Substance = CN1C(=O)[C@@]23C[C@]4([C@@]56c7ccccc7N[C@@H]5N5C(=O)[C@]7(C)SS[C@]5(C(=O)N7C)[C@H]6O)c5ccccc5N[C@@H]4N2C(=O)[C@]1(C)SS3; target or system = NCI-H460; test = cell growth or viability, SRB; quantity = IC50; value = 10 nM
Substance = CC(C)N(N=O)C(C)C; target or system = HepaRG, 3D spheroids; conditions = concentration not given, 24 h, highest tested concentration, hEGF 5 days; how to read = relative to: vehicle; quantity = γH2AX fold increase; value = 1.2 to 1.3 fold
Substance = CC[C@@]12SS[C@]3(C(=O)N1C)[C@@H](O)C1(C45c6ccccc6N[C@@H]4N4C(=O)[C@]6([C@@H](C)O)SS[C@]4(C(=O)N6C)[C@H]5O)c4ccccc4N[C@@H]1N3C2=O (stereo partly drawn); target or system = HT-29; test = cell growth or viability, SRB; quantity = IC50; value = 30 nM
Substance = CC[C@H](C)[C@@H]1NC(=O)[C@H](Cc2c[nH]c3ccccc23)NC(=O)CNC(=O)c2cc3cc(c2)C(=O)NC[C@@H](C(=O)NCCC(=O)NCCC(=O)N[C@@H](CCCCN)C(N)=O)NC(=O)[C@H](CCCNC(=N)N)NC(=O)[C@@H](CCCNC(=N)N)NC(=O)[C@H](CCCNC(=N)N)NC(=O)[C@H](Cc2ccc4ccccc4c2)NC(=O)[C@H](Cc2ccccc2)NC(=O)[C@H](CNC3=O)NC(=O)[C@H](C)NC(=O)[C@H](Cc2ccc(O)cc2)NC1=O; target or system = HeLa; test = flow cytometry; conditions = 5 µM, 2 h, FITC-labelled peptide; how to read = relative to: CPP1; quantity = cellular uptake; value = 163%
Substance = C[C@H]1CNCCc2ccc(Cl)cc21; test system = male Sprague-Dawley rat, plasma; conditions = subcutaneous, 1 mg/kg, single dose; quantity = Cmax; value = 34.4 ng/mL
Substance = CC[C@H](C)[C@H](NC(=O)[C@H](CCCCN)NC(=O)[C@H](Cc1c[nH]c2ccccc12)NC(=O)[C@H](Cc1c[nH]c2ccccc12)NC(=O)[C@H](CCCCN)NC(=O)[C@H](CCCCN)NC(=O)[C@H](CCCCN)NC(=O)[C@H](Cc1c[nH]c2ccccc12)NC(=O)[C@H](CCCCN)NC(=O)[C@H](CCCCN)NC(=O)[C@H](Cc1c[nH]c2ccccc12)NC(=O)[C@H](CCCCN)NC(=O)[C@H](CCCCN)NC(=O)[C@@H](NC(=O)[C@@H](NC(=O)[C@H](CCCCN)NC(=O)[C@@H](N)CCCNC(=N)N)[C@@H](C)CC)[C@@H](C)CC)C(=O)N[C@@H](Cc1c[nH]c2ccccc12)C(=O)N[C@@H](Cc1c[nH]c2ccccc12)C(=O)N[C@@H](CCCCN)C(=O)NCCOCCOCC(N)=O; target or system = mouse erythrocytes; conditions = 128 µM, 1 h, pH 7.4, 37 °C; quantity = hemolysis; value = < 10%

For quick reference, copied from above:
Substance = CC[C@H](C)[C@H](NC(=O)[C@H](Cc1ccccc1)NC(=O)[C@H](CCC(=O)O)NC(=O)[C@H](CCCCNC(=O)COCCOCCNC(=O)COCCOCCNC(=O)CC[C@H](NC(=O)CCCCCCCCCCCCCCCCC(=O)O)C(=O)O)NC(=O)[C@H](C)NC(=O)[C@H](C)NC(=O)[C@H](CCC(N)=O)NC(=O)CNC(=O)[C@H](CCC(=O)O)NC(=O)[C@H](CC(C)C)NC(=O)[C@H](Cc1ccc(O)cc1)NC(=O)[C@H](CO)NC(=O)[C@H](CO)NC(=O)[C@@H](NC(=O)[C@H](CC(=O)O)NC(=O)[C@H](CO)NC(=O)[C@@H](NC(=O)[C@H](Cc1ccccc1)NC(=O)[C@@H](NC(=O)CNC(=O)[C@H](CCC(=O)O)NC(=O)C(C)(C)NC(=O)[C@@H](N)Cc1cnc[nH]1)[C@@H](C)O)[C@@H](C)O)C(C)C)C(=O)N[C@@H](C)C(=O)N[C@@H](Cc1c[nH]c2ccccc12)C(=O)N[C@@H](CC(C)C)C(=O)N[C@H](C(=O)N[C@@H](CCCNC(=N)N)C(=O)NCC(=O)N[C@@H](CCCNC(=N)N)C(=O)NCC(=O)O)C(C)C; target or system = human PBMC; test = T-cell proliferation; conditions = 30 µg/mL, stimulation index above 2.0; quantity = responding donors; value = 9.9%
Substance = Nc1ccc2c(n1)[nH]c1ccccc12; target or system = rat primary midbrain neurons; test = selective dopaminergic neurotoxicity, refers to: TH+ over MAP2+ neurons; conditions = 24 h; quantity = threshold concentration; value = 1 µM
Substance = COc1cc(/C=C/C(=O)OCC(O)C(OC)c2ccc(O)c(OC)c2)ccc1O (stereo not drawn); target or system = Hepa-1c1c7; test = cytotoxicity, crystal violet; conditions = 48 h; quantity = IC50; value = > 20000 nM
